Measured values collected from several papers.
Every numbered part comes from another study and shows a few of its results, in no order. Substitutions count along the parent as printed.

Set 1
Target: Interferon regulatory factor 3, full length, phosphomimetic (IRF3, Homo sapiens, UniProt Q14653, residues 1-427, S386D/S396D/S398D/S402D/T404D/S405D)
Method: protein-binding microarray
Form: double-stranded DNA, one strand shown
Matrix: in vitro
Concentration: 2540 nM top
Notes: 60-bp whole probe
Together with: salmon DNA 0.4 mg/ml
Relative to: random background probes
Reading: higher = stronger binding
Quantity: fitted relative affinity
Shared flanks, not repeated: GCCTAGCAC … GTCTTGATTCGCTTGACGCTGCTG
Residues (chain): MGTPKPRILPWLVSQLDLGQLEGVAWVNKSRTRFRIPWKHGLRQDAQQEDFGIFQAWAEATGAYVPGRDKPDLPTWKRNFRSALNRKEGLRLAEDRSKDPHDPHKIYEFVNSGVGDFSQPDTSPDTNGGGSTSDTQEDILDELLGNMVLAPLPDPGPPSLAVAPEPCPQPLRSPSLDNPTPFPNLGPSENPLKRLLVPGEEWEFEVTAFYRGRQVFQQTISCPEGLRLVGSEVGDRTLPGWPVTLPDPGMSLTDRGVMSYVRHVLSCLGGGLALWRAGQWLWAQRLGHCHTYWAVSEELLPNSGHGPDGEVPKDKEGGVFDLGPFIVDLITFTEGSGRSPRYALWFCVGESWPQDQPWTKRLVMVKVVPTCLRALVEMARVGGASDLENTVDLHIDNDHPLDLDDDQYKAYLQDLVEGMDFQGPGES
TATTGTTTCCTTCCTCTTTTGTGCTAG: 7.25 z-score
TATGGTTTTTTTTTAATTGAGTGCTAG: 1.15 z-score
TTAGAACTGAGACTGCATTAGTGCTAG: -0.468 z-score
TTAGGTCTCTGTTTCGGTTAGTGCTAG: 3.93 z-score
GCCGGTTTCGGACTGGGGACGTGCTAG: 4.78 z-score
TTAGGACTGTACTTTCGGTTAGTGCTA: 1.92 z-score
TCACCTTCCTCTTTTACACTGTGCTAG: 2.26 z-score
TTAGGTTTCGGTTCCGGTGAGTGCTAG: 10.7 z-score

Set 2
Target: CCNB1, cyclin fold, Cln2 fusion (human)
Method: yeast growth competition, sequencing
Matrix: yeast
Notes: weak parent motif
Relative to: not given
Reading: higher = stronger binding
Quantity: normalised enrichment score
Starting sequence: SCAPER docking peptide (human); SNARRSLNFGGST
N8H: 0.552
A3K: 0.0564
S12W: 0.158
A3H: 0.384
T13S: 0.409
F9N: -0.104
N8C: 0.0533
N8V: -0.113

Set 3
Target: RING finger protein unkempt homolog, zinc fingers 1-6, GST-SBP tag (UNK, Homo sapiens, UniProt Q9C0B0, residues 30-357)
Sequence of UniProt Q9C0B0 (30-357, looked up): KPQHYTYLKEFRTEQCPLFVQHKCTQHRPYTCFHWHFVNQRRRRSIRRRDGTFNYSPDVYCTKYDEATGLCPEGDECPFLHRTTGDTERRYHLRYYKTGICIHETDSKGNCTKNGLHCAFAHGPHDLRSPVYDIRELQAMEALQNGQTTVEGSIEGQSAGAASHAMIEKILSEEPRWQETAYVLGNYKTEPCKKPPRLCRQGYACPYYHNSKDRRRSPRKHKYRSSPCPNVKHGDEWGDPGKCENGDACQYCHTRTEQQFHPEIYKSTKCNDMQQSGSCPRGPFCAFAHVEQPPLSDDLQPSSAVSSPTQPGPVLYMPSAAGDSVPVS
Method: RNA Bind-n-Seq
Form: RNA
Matrix: in vitro
Concentration: not given
Notes: RNA with constant flanks, human and mouse sites, ends assumed
Relative to: input RNA pool
Reading: higher = stronger binding
Quantity: bound/input enrichment
Shared flanks, not repeated: GGGAGUUCUACAGUCCGACGAUC … CAACAGAGGAUUGAGCAUCA
UCUUGUUCCUCCAGCCUAAGUGCUCUGAGCCUGGAUGAGCCAUUUAUACAGAAAGAUGUAGAAUUAAGAAUCAUGCCUCCAGUUCAGGAAAACGACAAUGGGAAUGAAACUGAAUCAGAA: 0.129 ratio
AACCUCGGUCGGAAAAGCGAACUGAGUCUAGACUUAGACAGUGAUGUUGUUAGAGAAACAGUGGACUCCCUUAAGCUGUUAGCACAAGGACAUGGUGUUGUGCUAUCAGAGAAUAUCAGU: 0.213 ratio
GUGAACAUAACCAAAGGCAGAGGAGACAGAUCCUCUCUGAAAGUGGUGAAGGCGGCAGCCCAGGUCUUGAAUACAUUAUGGCAGUACCGGGACCUCCGGAGCAUUUACAAAAAGGAUGGG: 0.387 ratio
AUGCUGACUGGUAAAACCCUUUUUGCAGGUGCACAUGAACUUGAACAGAUGCAGCUGAUUUUAGAAUCUAUUCCUGUUGUACAUGAGGAAGAUCGUCAGGAGCUUCUCAGCGUAAUUCCA: 0.305 ratio
CAUCUAUACAAUUUUAAAAAUACUUCCUCAUAGGAUGCUUUGGCCCUUCAUCUAUUUAAUCAUAGCUACAUACCUAUUUUUUAUAAGUAGCAGUACACAUUCAAAGGGGUAUUCCUAGCU: 7.76 ratio
CCGGUUUGUAAAACAUUAAGAGAAAAAAUAGGAUAUUUUAUACAUGUGGUGAGUGGAGAACAGGGUAACUUUAAAUGAAAGUGUAAGGCAAAUUGUAAGCACCACAAGAUAUAUCAGAUU: 0.951 ratio
GCAGAAGGAACUUUGGGGUGCAGCCAGGACCCGGUAGGCCUGAGCCUCAACUCUUCAGAAAAUAGUGUUUUUAAUAUUCCUCUUCAGAAAAUAGUGUUUUUAAUAUUCCGAGCUAGAGCU: 57.8 ratio
AAAUUUAAAAAUUCUUUCUGUUGUACAGAAUUAAAUGAAGAAAUCAAACAGUCUCAUUCUUUUAGUUUACAGACACCUUGUUCAAAAGGUAGUGAAUUAAGAAUGAUUAAUAAAAAUCCU: 0.444 ratio

Further values, each from its own experiment
PhoQ, residues 284 288 289 292 302 303 NLALSC  fold induction (PhoP, residues 12 14 15 18 19 SPWRL (Escherichia coli, UniProt P23836); Sort-seq, refers to: YFP reporter; E. coli; PhoQ-PhoP variant library, together with: 10 µM Mg2+; relative to: high Mg2+ state, higher = stronger signaling): 5.84

Excerpt of the above (set 3):
CAUCUAUACAAUUUUAAAAAUACUUCCUCAUAGGAUGCUUUGGCCCUUCAUCUAUUUAAUCAUAGCUACAUACCUAUUUUUUAUAAGUAGCAGUACACAUUCAAAGGGGUAUUCCUAGCU: 7.76 ratio
CCGGUUUGUAAAACAUUAAGAGAAAAAAUAGGAUAUUUUAUACAUGUGGUGAGUGGAGAACAGGGUAACUUUAAAUGAAAGUGUAAGGCAAAUUGUAAGCACCACAAGAUAUAUCAGAUU: 0.951 ratio
GCAGAAGGAACUUUGGGGUGCAGCCAGGACCCGGUAGGCCUGAGCCUCAACUCUUCAGAAAAUAGUGUUUUUAAUAUUCCUCUUCAGAAAAUAGUGUUUUUAAUAUUCCGAGCUAGAGCU: 57.8 ratio
AAAUUUAAAAAUUCUUUCUGUUGUACAGAAUUAAAUGAAGAAAUCAAACAGUCUCAUUCUUUUAGUUUACAGACACCUUGUUCAAAAGGUAGUGAAUUAAGAAUGAUUAAUAAAAAUCCU: 0.444 ratio
